Measurements pooled from the literature.
Protocols differ between the studies behind these lines. Values joined by “and” are separate records of one study, mostly repeats; a detail may differ. ± gives the spread as reported.

| Structure (SMILES) | test | test system | setting | how to read | measurement | value |
| --- | --- | --- | --- | --- | --- | --- |
| N#Cc1ccn2c(-c3ccncc3)c(-c3ccc(F)cc3)nc2c1 | kinase binding, competitor, MIB/MS competition, refers to: RTK1 | Candida albicans cell lysate | 1 µM | reference: DMSO | log2 fold change | 0.00647 |
| CN(C)CCC(=O)Nc1ccc(C2CCCCC2)cc1 | liver microsome stability | dog liver microsomes | 1 µM | – | hepatic clearance | 30 mL/min/kg |
| Cc1n[nH]c2ccc(-c3cc(OC[C@@H](N)Cc4ccccc4)cnc3-c3ccoc3)cc12 | kinase binding, competitor, MIB/MS competition, refers to: CDC7 | Candida albicans cell lysate | 100 nM | reference: DMSO | log2 fold change | -0.0168 |
| O=c1c(NCCc2cccc(Cl)c2)c(Nc2ccc(Cl)cc2)c1=O | active lever responses | cocaine self-administering rat | ip, 5.6 mg/kg, 10 min pretreatment | – | cue-induced cocaine-seeking reinstatement | decreased |
| CSCCNc1nc(SCCC(F)(F)F)nc2c1ncn2[C@@H]1O[C@H](COP(=O)(O)OP(=O)(O)C(Cl)(Cl)P(=O)(O)O)[C@@H](O)[C@H]1O | platelet aggregation, light transmission aggregometry | human patients, platelet-rich plasma | dose not given, 1 h, with: TRAP 15 µM | – | inhibition | 17 ± 17% |
| Cn1cc(Nc2nccc(-c3ccc4c(c3)CN(C3COC3)CC[C@H]4NC(=O)c3cn(C(C)(C)C)nn3)n2)cn1 | refers to: Insulin Receptor Signaling | splenic B cells, mouse | in vivo, 30 mg/kg, IgD-activated B cells | reference: vehicle, positive = activation | pathway activation z-score | 0.218 |
| O=C(OC(C(F)(F)F)C(F)(F)F)N1CCN(Cc2cccc(Oc3ccccc3)c2)CC1 | PET | rhesus monkey, cerebellum | intravenous, 0.1 mg/kg, pretreatment, with: [18F]T-401 | – | tracer distribution volume | 4.97 mL/cm3 |
| CC(=O)N1CC(C(=O)Nc2ccc(C3CCCCC3)cc2)C1 | hepatocyte stability | cryopreserved rat hepatocytes | 1 µM | – | hepatic clearance | 32 mL/min/kg |
| OC(CCN1CCCCC1)(c1ccccc1)C1CC2C=CC1C2 (stereo not shown) | resting-state EEG | healthy elderly humans | oral, 2 mg, eyes closed, LS mean | reference: baseline | change in EEG Beta3-power Fz-Cz | 4.3% |
| O=C(O)CNC(=O)Cc1ccccc1 | – | ventricular cardiomyocytes, C57BL/6 mouse | dose not given, 0.036 s | – | sarcomere length | 1.72 µm |
| COC(=O)c1cc(O)c(O)c(O)c1 | glucuronidation kinetics | Wistar rat liver microsomes | M2 formation | – | substrate inhibition constant | 69.9 ± 64.3 µM |
| CC(C)C[C@H](NC(=O)[C@@H](Cc1c[nH]c2ccccc12)NC(=O)[C@H](Cc1ccc(O)cc1)NC(=O)[C@H](CO)NC(=O)[C@H](Cc1c[nH]c2ccccc12)NC(=O)[C@H](Cc1c[nH]cn1)NC(=O)[C@@H]1CCC(=O)N1)C(=O)N[C@@H](CCCNC(=N)N)C(=O)N1CCC[C@H]1C(=O)NCC(N)=O | – | Chinese girls, central precocious puberty | intramuscular, 22.5 mg day 1, month 6, month 6, Tanner stage II | – | girls at breast stage | 44% |
| NC(=O)c1cnc2[nH]ccc2c1N[C@@H]1[C@@H]2CC3C[C@H]1C[C@@](O)(C3)C2 | flow cytometry, refers to: CD4+ memory T cells | Japanese healthy subjects, peripheral blood | oral, 10 mg twice daily, day 4 | – | change from baseline | 0.18% |
| C[C@H]1O[C@@H](O[C@H]2CC[C@@]3(C)[C@@H](CC[C@]4(C)[C@@H]3C=C[C@]35OC[C@@]6(CCC(C)(C)C[C@H]63)[C@@H](O)C[C@]54C)[C@]2(C)CO)[C@H](O)[C@@H](O[C@@H]2O[C@H](CO)[C@@H](O)[C@H](O)[C@H]2O)[C@H]1O | – | Mus musculus, pair-fed control, liver | oral, 15 mg/kg/day | – | hepatic total cholesterol | 0.0915 mmol/g protein and 0.0875 mmol/g protein and 0.0625 mmol/g protein and 0.0738 mmol/g protein and 0.076 mmol/g protein and 0.0719 mmol/g protein |
| c1ccc(-c2n[nH]cc2-c2ccnc3ccccc23)nc1 | kinase binding, competitor, MIB/MS competition, refers to: CEK1 | Candida albicans cell lysate | 10 µM | reference: DMSO | log2 fold change | 0.766 |
| CC(C)NCC(O)c1ccc(O)c(O)c1 (stereo not shown) | – | ventricular cardiomyocytes, C57BL/6 mouse | dose not given, 0.02 s | – | sarcomere length | 1.72 µm |
| N#Cc1ccc2c(c1)[C@H]1CCCN(C(=O)c3ccc4[nH]cnc4c3)[C@H]1C2 | refers to: LDL | human | 240 mg once daily, day 28, adjusted mean | – | change from baseline | -3.18 mg/dL |
| C=CCn1c(=O)c2cnc(Nc3ccc(N4CCN(C)CC4)cc3)nc2n1-c1ccc2c(n1)[C@@](O)(CC)CC2 | – | NCI-H82 xenograft, BALB/c nude mice | oral, 80 mg/kg once daily x 21, day 20 | – | tumour volume difference | 1450 ± 105 mm3 |
| C[C@H]1C[C@H]2CSC(N)=N[C@@]2(c2nc(NC(=O)c3ccc(OC(F)F)cn3)cs2)CO1 | refers to: Aβ1-40 | healthy adults, plasma | 12 mg single dose, 4 h post-dose | reference: placebo | percent change from baseline | -57.5% |
| Cc1cn(-c2ccc3n(c2=O)CCN([C@@H](C)[C@@H]2CC[C@H](c4cc(F)c(Cl)cc4C(F)(F)F)O2)C3=O)cn1 | refers to: Aβ42 | human, cerebrospinal fluid | 300 mg single dose, Tmax | reference: placebo-adjusted baseline | change in CSF level | -38.9% |
| C[C@H](Oc1ccc(Br)cc1-c1ccon1)C(=O)O | maximum voluntary grip contraction, handgrip dynamometry | healthy human | 50 mg, SAD | – | difference from placebo | -4.97 kg |
| N#Cc1ccc2c(-c3ccncc3)c(-c3ccc(F)cc3)nn2c1 | kinase binding, competitor, MIB/MS competition, refers to: CAK1 | Candida albicans cell lysate | 1 µM | reference: DMSO | log2 fold change | -0.00487 |

For quick reference, copied from above:
| Structure (SMILES) | test | test system | setting | how to read | measurement | value |
| --- | --- | --- | --- | --- | --- | --- |
| CC(C)C[C@H](NC(=O)[C@@H](Cc1c[nH]c2ccccc12)NC(=O)[C@H](Cc1ccc(O)cc1)NC(=O)[C@H](CO)NC(=O)[C@H](Cc1c[nH]c2ccccc12)NC(=O)[C@H](Cc1c[nH]cn1)NC(=O)[C@@H]1CCC(=O)N1)C(=O)N[C@@H](CCCNC(=N)N)C(=O)N1CCC[C@H]1C(=O)NCC(N)=O | – | Chinese girls, central precocious puberty | intramuscular, 22.5 mg day 1, month 6, month 6, Tanner stage II | – | girls at breast stage | 44% |
| C[C@H]1C[C@H]2CSC(N)=N[C@@]2(c2nc(NC(=O)c3ccc(OC(F)F)cn3)cs2)CO1 | refers to: Aβ1-40 | healthy adults, plasma | 12 mg single dose, 4 h post-dose | reference: placebo | percent change from baseline | -57.5% |
